# Experimental data pooled from the literature.
# Numbered parts are unrelated; each lists some results of a single study.

# Series 1 — method: RNA Bind-n-Seq; molecule type: RNA; medium: in vitro; tested at: 365 nM; reference: no-protein control; reading: higher = stronger binding
# Target: RNA binding protein fox-1 homolog 2, RRM domain, GST-SBP tag (RBFOX2, Homo sapiens, UniProt O43251-10, residues 100-194)
# Setting: natural RNA segment, single round, ends assumed
# Residues (chain): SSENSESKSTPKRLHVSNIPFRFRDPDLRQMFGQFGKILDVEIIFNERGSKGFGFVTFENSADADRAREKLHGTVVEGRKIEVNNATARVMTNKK
Sequence,RBNS enrichment (R)
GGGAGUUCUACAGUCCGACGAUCCAGGGUGACUUCAGUGACAUUCCUUCCCUCCUUCACAAGCACGAAAAACUCGUUCGGAGAAAAGACAGCUUCUGCCUUCCCUACCAGGCGGACAGGGUACUCACUGUGCCUGGAAUUCUCGGGUGCCAA,0.555
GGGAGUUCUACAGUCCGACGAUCAACCUGUCUUGUUUCAGGAGCCACCAUGUUUUUUUUUCAGUGUUAACAACAAUCAUGAUAAUUAAAUUAAAACACUAGUUUGUUCACUUGUAGGACUGCAGUUCUGAAUUUGGAAUUCUCGGGUGCCAA,0.433
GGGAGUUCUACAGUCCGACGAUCCGCAGGAGCAGGAGUGGCUCCAAGCUGUGCUCUCCAUGAACUCUGGCUCUGGGGAGAUUUCUAGUAACUCUUCAAUCUGUACUUUCUGUGCCCGCCUCGGUUUUGAGUUGUGGAAUUCUCGGGUGCCAA,0.432
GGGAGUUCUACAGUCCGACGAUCGAGUUUUCUUCCAAAAGCACUGUUUCCAGUCUGAGUAGGAGCUACCAGCCUGUGGCAAUCAGCAGGGAAAGACAGGUGCUCCUGUCAUAGGGGCUUGAGCUACCACAGCUUGGAAUUCUCGGGUGCCAA,0.302
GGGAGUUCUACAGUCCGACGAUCGAUUUCUUGGUUAGGUUGCAUUAUAAUAACAAGAGUCAGAACAUUAAUUCGAAACAACUUGCAGUAUGCAUUUCUUCACACCAGUACAUUCUUAAGUGUACUUGUUUAUAUGGAAUUCUCGGGUGCCAA,1.21
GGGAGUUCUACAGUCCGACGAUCGAUCCUCCUGCCUCAGCUUCCCAAGUAGCGGGGAUCACAGGCAUGAGCCGCCACACCCGGCCAUCACACCUGGAUUUUCAGUGGGAGGUUUUUGGUUUGGAGACAUCCAAUGGAAUUCUCGGGUGCCAA,0.386
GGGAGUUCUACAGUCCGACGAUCGCAGGAAAAUUUGAAAGGGUUUGAAAUGCCCUGAAAUCAGGGCAAGUACUUAAUGGGGAAAAAAAAGCAGAAAUGUCAACAUUUGACCAAAUUAACACUACCUCCUCCCCUGGAAUUCUCGGGUGCCAA,0.426
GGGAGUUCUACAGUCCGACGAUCCUCCACCCGCUCUUCCUUCCCAGCCUGCCUGCAUGCAUGUGCACCCUUGGUCUUCGCUCCAUCGCCUUGAAAGCUCUGAAGAGGCCCUGGGUUGCCGCGGCAGCAGUGGUUGGAAUUCUCGGGUGCCAA,25.8
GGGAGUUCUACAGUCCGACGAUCCCGUAUCAGUACAGCUUUCACCUGGGUUGUCCGUUGUAGUGUCUGGGAAGCUUGAGGGUUCCCUUCUUAGGACCAGCGGGUGGUUUGUGAAAUGCUUAGCUGGUUAGCAUUGGAAUUCUCGGGUGCCAA,1.94
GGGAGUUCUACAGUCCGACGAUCUGGAAGAGGAGUCCUGAUCAGGCCUCACCCCUCCCCUGGGACUUUCCCACCCAGGAAAGGAGGACCAGUCAGGAUGAGGCCCCGCCUUUUCCCCCACCCUCCCAUGAGACUGGAAUUCUCGGGUGCCAA,0.339
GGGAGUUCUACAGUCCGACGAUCUCCCAACCCCUUUCUGUUAAAGCCUCCUAAGUGGUCAUUACUACUUUGUAGACAUUGGUAUUUGUUUUACUUAGCAAUAAGAAUGGUGAAAUUCAAAUUCUCGUUUAGAAUGGAAUUCUCGGGUGCCAA,0.519
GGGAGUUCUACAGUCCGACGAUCUAUUCAAGCCAGAUAUUUGGAAGCAAAUGAUAUUUCCUCUUGCAGUGUCCACAAAUCUGAAUAUUAGGGGCAUGAAAUUAGGCUUACCAUCUGAUUUGUAAUUACAAUUUUGGAAUUCUCGGGUGCCAA,0.714

# Series 2 — method: universal PBM; molecule type: double-stranded DNA, one strand shown; medium: in vitro; tested at: not given; reading: higher = stronger binding
# Target: Sal-like protein 4, full length isoform B (SALL4, Homo sapiens, UniProt Q9UJQ4-2, residues 1-616)
# Setting: 8-mer, flanks averaged, mean of replicates
Sequence,E-score
CGGCGACA,-0.264
AGCCTGAA,0.0191
GGGGAGAA,-0.125
GCAGTCGA,-0.124
CACCGAGC,-0.213
AATGCCAA,0.0932
CACTTAGA,0.0808
GTTAATCA,0.275
GCTTTCTA,0.113
ATCAAGGA,0.136
TACCCCCA,0.0329
ATCAACTC,0.0157
AAAATGGT,0.251
CAGACCGC,-0.252
ACCTTAAC,0.126
ATTTACAA,0.325
GGCGGAGA,-0.191

# Series 3 — method: RNA Bind-n-Seq; molecule type: RNA; medium: in vitro; tested at: not given; reference: input RNA pool; reading: higher = stronger binding
# Target: RING finger protein unkempt homolog, zinc fingers 1-6, GST-SBP tag (UNK, Homo sapiens, UniProt Q9C0B0, residues 30-357)
# Setting: RNA with constant flanks, human-mouse chimeric sites, ends assumed
# Construct (chain): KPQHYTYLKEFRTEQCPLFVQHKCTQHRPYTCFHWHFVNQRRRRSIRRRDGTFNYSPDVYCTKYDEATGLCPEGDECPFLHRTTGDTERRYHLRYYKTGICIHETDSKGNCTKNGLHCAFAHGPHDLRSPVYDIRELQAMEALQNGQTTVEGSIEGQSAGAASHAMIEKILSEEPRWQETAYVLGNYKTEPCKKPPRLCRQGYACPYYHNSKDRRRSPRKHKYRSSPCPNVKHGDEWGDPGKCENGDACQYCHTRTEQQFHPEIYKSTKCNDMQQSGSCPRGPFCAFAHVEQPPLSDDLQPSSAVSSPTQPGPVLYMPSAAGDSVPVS
Sequence,bound/input enrichment [ratio]
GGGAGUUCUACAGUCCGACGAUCGUUGCCAGCUUCCGGUUCCGUUGGGCUCGGUUCUCUCCUGAGCUACGUGUCUCUACGCUCUCAAUCCGCCAUCCAACGGCAGUCAUGCAGGUAAUGCAGUUUGUGGAGCCCAGCCGGCAGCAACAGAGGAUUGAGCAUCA,0.0701
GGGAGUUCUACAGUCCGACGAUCAGAGCCCAGGACGUUGAUGCUACAAAUCCAAAUUACGAAAUUAUGUGUAUGAUCAGAGACUUUAGAGGGAGCUUGGAUUACAGACCCCUAACAACAGCAGAUCCUAUUGAUGAACAUAGGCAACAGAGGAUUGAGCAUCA,0.588
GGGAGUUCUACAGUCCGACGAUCGUUCGGCUCUGGGAUCAUGCUACUAUGACAGAAGUGAAAUCUCUGAAUUUUAAUAUGUCUGUUAGCAGCAUGGAGUAUAUUCCUGAAGGAGAGAUUUUGGUUAUAACUUAUGGACGAUCUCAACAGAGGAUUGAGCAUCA,0.471
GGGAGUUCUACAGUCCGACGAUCGGAAGUACAAUGAUGGAGAUUGAUGGUGACAAAGGCAAGCAGGGCGGGCCCACCUACUACAUAGACACCAAUGCCCUGCGUGUUCCGAGGGAGAACAUGGAGGCCAUCUCACCACUCAAGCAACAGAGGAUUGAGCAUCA,0.209
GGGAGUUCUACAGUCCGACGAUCGUGUCCUGCUUUCAACUUAAAUCACUGCAUUUUUACUACUAUUCUGUGAGCAUCAGGACUGUAGCGCUGUGUCACCACAUGAGAGUUCAGAAGCAGCCUUUCUGUGGAGGGUGGGAAUGACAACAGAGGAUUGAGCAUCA,0.323
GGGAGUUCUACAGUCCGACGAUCUGGCGCCUCCCAUUUUUACUCGUGUUUUUAAGUGUAUUUUUAUAAGAUACAUGUAUUUGUAAUAGAUCUUUUGUUACAUAAUGCUGAAAUGCUACUGGAGAUUAUGAAAAAUGUUUCAAUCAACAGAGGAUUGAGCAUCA,0.675
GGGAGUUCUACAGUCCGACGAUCCCUGCUCAGAUCACCAUGAAAGUAAUCCAAGGCCUAUAUAGUGGGGUCACCACAGUGGAACUGGACACCCUGGCUGCUGAAACAGCUGCAACCUUGACCACGAAGCACCCUGACUAUGCCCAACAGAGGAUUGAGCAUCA,0.185

# Series 4 — method: protein binding microarray; molecule type: double-stranded DNA, one strand shown; medium: in vitro; tested at: not given; reference: not given; reading: higher = stronger binding
# Target: Histone acetyltransferase KAT6A, winged helix 2, GST fusion (KAT6A, Homo sapiens, UniProt Q92794, residues 85-181)
# Setting: 8-mer, flanks averaged, mean of 2 arrays, mostly near background
# Construct (chain): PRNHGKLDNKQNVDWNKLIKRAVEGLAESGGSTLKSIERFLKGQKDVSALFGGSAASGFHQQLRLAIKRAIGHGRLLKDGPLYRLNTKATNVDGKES
Sequence,E-score
AGTCCACG,-0.127
ACTGTTCG,0.134
AATCTTAA,-0.0923
TAAGCTAA,-0.0233
AGCGCCTG,0.0213
GGCCCTGA,-0.035
GGGGTAAC,-0.0849
GCACATAA,-0.0342
AGTGTGGC,0.0929
ACCATCTA,-0.0882
TGGACACA,0.0517
AGCTAGCA,0.0116
CCCCCGAC,0.11
CGGCTTAC,0.0202

# Series 5 — method: RNA Bind-n-Seq; molecule type: RNA; medium: in vitro; tested at: 200 nM; setting: whole 134-nt RNA, ends assumed; with: 150 mM LiCl; reference: input library; reading: higher = stronger binding; library: 7-deaza-guanosine replaces G
# Target: Ras GTPase-activating protein-binding protein 1, full length (G3BP1, Homo sapiens, UniProt Q13283)
# UniProt Q13283, sequence (whole entry, looked up): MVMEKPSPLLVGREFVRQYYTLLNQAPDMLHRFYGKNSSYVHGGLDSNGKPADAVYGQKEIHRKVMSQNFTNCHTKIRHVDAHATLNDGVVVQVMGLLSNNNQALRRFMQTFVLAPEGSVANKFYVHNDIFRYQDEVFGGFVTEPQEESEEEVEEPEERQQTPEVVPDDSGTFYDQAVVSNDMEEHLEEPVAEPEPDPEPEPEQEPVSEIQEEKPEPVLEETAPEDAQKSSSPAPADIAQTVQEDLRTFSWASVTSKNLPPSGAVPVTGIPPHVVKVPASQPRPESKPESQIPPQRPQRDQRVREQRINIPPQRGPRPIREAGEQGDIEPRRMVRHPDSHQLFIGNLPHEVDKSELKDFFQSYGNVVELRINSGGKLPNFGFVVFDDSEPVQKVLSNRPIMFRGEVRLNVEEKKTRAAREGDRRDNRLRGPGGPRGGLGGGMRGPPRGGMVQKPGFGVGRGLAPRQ
Sequence,log2 enrichment
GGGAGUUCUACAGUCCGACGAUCUGGGAGGUGGAUUUUGUUUAUUUGUUUAGCUCAUUUCCAGGGGUGGGAAUUUUUUUUUAAUAUGUGUCAUGAAUAAAGUUGUUUUUGAAAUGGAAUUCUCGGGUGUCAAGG,-0.138
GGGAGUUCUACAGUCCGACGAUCAGUCACUUUUUAAUUUUAUUUAUUAUUUCUCCUCUUAGACCGCAGGAUGGAAACAAGCCCACUGAGACUAGUCAACCUCAAUCUAGCACAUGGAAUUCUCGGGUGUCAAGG,1.55
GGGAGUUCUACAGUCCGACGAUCCACAGACAACGCGCACCCACACAGACACAGAGGGAAGGGGUUGGGAUGGGGACAGGGUGCACAGCAGGGCGGGGUAGGACCCCAGCCCCUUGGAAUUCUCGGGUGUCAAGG,-0.622
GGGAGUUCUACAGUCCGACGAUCUGGGAGGUGGAUUUUGUUUAUUUUUUUAGCUCAUUUCCAGGGGUGGGAAUUUUUUUUUAAUACGUGUCAUGAAUAAAGUUGUUUUUGAAAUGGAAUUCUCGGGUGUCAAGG,-0.35
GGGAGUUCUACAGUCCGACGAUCUGGCCCUGGUUGCAUGCGGGGAGGAAGAGGUGGCCUCAUGGAUCGUGGUGGUCCCGGUGGAAUGUUCAGAGGUGGCCGUGGUGGAGACAGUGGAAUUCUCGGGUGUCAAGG,0.357

# A few entries again (series 3):
Sequence,bound/input enrichment [ratio]
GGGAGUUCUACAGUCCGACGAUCGUUGCCAGCUUCCGGUUCCGUUGGGCUCGGUUCUCUCCUGAGCUACGUGUCUCUACGCUCUCAAUCCGCCAUCCAACGGCAGUCAUGCAGGUAAUGCAGUUUGUGGAGCCCAGCCGGCAGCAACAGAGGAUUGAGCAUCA,0.0701
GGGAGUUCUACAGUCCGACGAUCCCUGCUCAGAUCACCAUGAAAGUAAUCCAAGGCCUAUAUAGUGGGGUCACCACAGUGGAACUGGACACCCUGGCUGCUGAAACAGCUGCAACCUUGACCACGAAGCACCCUGACUAUGCCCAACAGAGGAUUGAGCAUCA,0.185
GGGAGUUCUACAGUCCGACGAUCAGAGCCCAGGACGUUGAUGCUACAAAUCCAAAUUACGAAAUUAUGUGUAUGAUCAGAGACUUUAGAGGGAGCUUGGAUUACAGACCCCUAACAACAGCAGAUCCUAUUGAUGAACAUAGGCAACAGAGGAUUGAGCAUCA,0.588
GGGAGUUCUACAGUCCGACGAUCGUGUCCUGCUUUCAACUUAAAUCACUGCAUUUUUACUACUAUUCUGUGAGCAUCAGGACUGUAGCGCUGUGUCACCACAUGAGAGUUCAGAAGCAGCCUUUCUGUGGAGGGUGGGAAUGACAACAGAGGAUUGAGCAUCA,0.323
